{"data": "Assay results pooled from the literature", "target": "Histamine H2 receptor (HRH2, Homo sapiens, UniProt P25021)", "note": "Lines come from different studies, so protocols differ.", "UniProt P25021, sequence (whole entry, looked up)": "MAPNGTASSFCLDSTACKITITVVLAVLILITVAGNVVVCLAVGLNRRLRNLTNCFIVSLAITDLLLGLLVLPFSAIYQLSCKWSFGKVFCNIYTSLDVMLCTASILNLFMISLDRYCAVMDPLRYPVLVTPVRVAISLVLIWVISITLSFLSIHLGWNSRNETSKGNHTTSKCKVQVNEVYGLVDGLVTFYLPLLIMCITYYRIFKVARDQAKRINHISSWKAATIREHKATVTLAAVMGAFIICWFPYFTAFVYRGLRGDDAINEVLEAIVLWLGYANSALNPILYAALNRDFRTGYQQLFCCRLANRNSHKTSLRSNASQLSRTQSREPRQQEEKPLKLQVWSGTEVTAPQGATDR"}
{"SMILES": "CC(C)Cn1c(SCC(=O)N2CCc3ccccc3C2)nc2cc(Cl)ccc2c1=O", "test": "ligand displacement, radioligand", "setting": "10 µM", "quantity": "inhibition", "value": "20%"}
{"SMILES": "Cc1cccc(O[C@H]2CCC[C@@H](C(C)CNCc3ccncc3)C2)c1 (relative stereo)", "test": "ligand displacement", "setting": "10 µM", "quantity": "inhibition", "value": "58%"}
{"SMILES": "COc1ccc(S(=O)(=O)N2CCc3ccccc3C2)cc1N1CCN(C(=O)c2ccc(F)cc2C(F)(F)F)CC1", "test": "cell-free assay", "setting": "1 µM", "quantity": "inhibition", "value": "17.5%"}
{"SMILES": "COc1ccc(C#CC2=C[C@H]3C[C@@]4(OC(=O)C=C24)[C@H]2CC[C@H](C(OC)OC)N32)cc1", "test": "ligand displacement, radioligand", "setting": "10 µM", "quantity": "inhibition", "value": "31%"}
{"SMILES": "Cn1ccc2cc(-n3c(=O)[nH]c4sc5c(c4c3=O)CCCC5)ccc21", "test": "cell-free assay, radioligand", "setting": "10 µM", "quantity": "inhibition", "value": "-15%"}
{"SMILES": "CO[C@@H](C)c1c(NC(=O)Nc2cnc(-n3nccn3)c(C(F)(F)F)c2)cnc2sc(C)nc12", "test": "ligand displacement, radioligand", "setting": "10 µM", "quantity": "inhibition", "value": "14.7%"}
{"SMILES": "C[Si]1(C[C@H](CN)CC(=O)O)CCCC1", "test": "cell-free assay, inhibitor", "setting": "70 µM", "quantity": "inhibition", "value": "-3%"}
{"SMILES": "COc1ccc(C(=O)Nc2c(-c3cccs3)nc3ccccn23)cc1", "test": "ligand displacement, radioligand", "setting": "10 µM", "quantity": "inhibition", "value": "< 50%"}
{"SMILES": "Cc1[nH]nc2c1N=C(c1ccccc1Cl)c1cnc(N3CCOCC3)cc1N2", "test": "cell-free assay", "setting": "10 µM", "quantity": "inhibition", "value": "0%"}
{"SMILES": "COc1ncc2nc(C)n(Cc3ncc(S(N)(=O)=O)cc3F)c2c1-c1ccccc1", "test": "agonist, cell-based", "setting": "10 µM", "quantity": "activation", "value": "2.34%"}
{"SMILES": "O=C1c2sc(-c3ccc(N4CCC(F)C4)nc3F)nc2CCN1c1cccnc1 (stereo not drawn)", "test": "ligand displacement, radioligand", "setting": "1 µM", "quantity": "inhibition", "value": "-2%"}
{"SMILES": "COCC(=O)N1CCc2cc(-c3csc(NC(=O)c4cc(OC)cc(OC)c4)n3)ccc21", "test": "ligand displacement, radioligand", "setting": "10 µM", "quantity": "inhibition", "value": "8%"}
{"SMILES": "CCC(=O)N(C)c1ccc(Cl)c(Cl)c1", "test": "ligand displacement, radioligand", "setting": "10 µM", "quantity": "inhibition", "value": "< 10%"}
{"SMILES": "CNC(=O)C[C@H](Cc1ccc(C#N)cc1)NC(=O)c1cc(-c2ccc(CN[C@H](C)c3ccc(C)cc3)o2)ccc1Cl", "test": "agonist response, antagonist", "system": "human cells", "setting": "10 µM, H2 antagonist", "quantity": "inhibition", "value": "-24%"}
{"SMILES": "C[Si](C)(C)C[C@@H](CN)CC(=O)O", "test": "cell-free assay, inhibitor", "setting": "75 µM", "quantity": "inhibition", "value": "-9%"}
{"note": "Some of these lines once more:"}
{"SMILES": "COc1ncc2nc(C)n(Cc3ncc(S(N)(=O)=O)cc3F)c2c1-c1ccccc1", "test": "agonist, cell-based", "setting": "10 µM", "quantity": "activation", "value": "2.34%"}
{"SMILES": "O=C1c2sc(-c3ccc(N4CCC(F)C4)nc3F)nc2CCN1c1cccnc1 (stereo not drawn)", "test": "ligand displacement, radioligand", "setting": "1 µM", "quantity": "inhibition", "value": "-2%"}
